Measurements from different studies.
T1: riboswitch RNA 2'-deoxyguanosine sensing domain (Mesoplasma florum); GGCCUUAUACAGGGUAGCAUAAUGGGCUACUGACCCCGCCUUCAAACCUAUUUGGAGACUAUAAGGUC
T2: DNA aptamer; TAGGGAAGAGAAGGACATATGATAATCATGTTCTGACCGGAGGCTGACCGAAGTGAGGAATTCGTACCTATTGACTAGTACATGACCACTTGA
T3: pre-miR-21 RNA, U bulge to U-A pair (Homo sapiens); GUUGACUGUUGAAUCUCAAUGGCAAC
T4: DNA aptamer three adenosine sites; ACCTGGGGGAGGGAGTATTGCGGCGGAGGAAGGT
T5: DNA aptamer, 8-thienyl-dG at G5; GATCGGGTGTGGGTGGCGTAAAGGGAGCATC
T6: RNA G4, bulged parallel (Homo sapiens); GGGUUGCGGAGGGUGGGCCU
T7: pre-miR-21 RNA, hairpin loop region (Homo sapiens); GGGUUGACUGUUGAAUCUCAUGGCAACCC
T8: DNA aptamer; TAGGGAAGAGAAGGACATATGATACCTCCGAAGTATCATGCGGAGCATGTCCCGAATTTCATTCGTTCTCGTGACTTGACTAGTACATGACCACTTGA
T9: DNA aptamer, structure-switching; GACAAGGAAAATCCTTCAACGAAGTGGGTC
T10: SNCA 5' UTR IRE RNA A-bulge hairpin (Homo sapiens); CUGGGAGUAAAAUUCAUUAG
T11: DNA aptamer; CGAAAACTAGACAGCG

Nc1nc2c(ncn2[C@H]2C[C@H](O)[C@@H](COP(=O)(O)O)O2)c(=O)[nH]1 — Kd (T1, riboswitch RNA 2'-deoxyguanosine sensing domain (Mesoplasma florum); ITC; pH 6.8, 30 °C, KCl 100 mM): 379 µM
C[C@]12CC[C@@H]3c4ccc(O)cc4C(=NOCC(=O)O)C[C@H]3[C@@H]1CC[C@@H]2O — Kd (T2, DNA aptamer; plate-ELAA; NaCl 100 mM): 0.00087 µM
CN1CCN(c2ccc(-c3ccc4[nH]c(-c5ccc(OCCCC(=O)N6CCN(c7nncc8sccc78)CC6)cc5)nc4c3)cc2)CC1 — Kd (T3, pre-miR-21 RNA, U bulge to U-A pair (Homo sapiens); microscale thermophoresis): 0.23 µM
Nc1ncnc2c1ncn2[C@@H]1O[C@H](CO)[C@@H](O)[C@H]1O — Kd (T4, DNA aptamer three adenosine sites; ITC; pH 7.6, 25 °C, Na+ 100 mM, one-site model): 11 µM
C[C@@H]1Cc2c(Cl)cc(C(=O)N[C@@H](Cc3ccccc3)C(=O)O)c(O)c2C(=O)O1 — Kd (T5, DNA aptamer, 8-thienyl-dG at G5; fluorescence titration; pH 8.0, 20 °C, K+ 5 mM, together with: OTA 3 µM): 19.9 µM
CCN(CC)c1ccc2cc(/C=C/c3ccc4cc(F)c(N5CCN(C)CC5)cc4[n+]3C)c(=O)oc2c1 — Kd (T6, RNA G4, bulged parallel (Homo sapiens); microscale thermophoresis; pH 7.5, 25 °C, KCl 150 mM, MgCl2 1 mM): 0.171 µM
N=C(N)NCCC[C@H](NC(=O)CN(Cc1ccco1)C(=O)CN(CCO)C(=O)CNCc1ccncc1)C(=O)NCC(=O)NCC(N)=O — Kd (T7, pre-miR-21 RNA, hairpin loop region (Homo sapiens); in-line cleavage; pH 8.5, apparent): 251 µM
CC(=O)[C@H]1CC[C@H]2[C@@H]3CCC4=CC(=NOCC(=O)O)CC[C@]4(C)[C@H]3CC[C@]12C — Kd (T8, DNA aptamer; bead-ELAA; NaCl 100 mM): 0.00044 µM
c1ccc([C@H]2CN3CCSC3=N2)cc1 — Kd (T9, DNA aptamer, structure-switching; 1H NMR titration; 500 µM, pH 6.8, 5 °C, KCl 245 mM, apparent): 1700 µM
CCOC(=O)C1=C(Nc2ccccc2)SC(=Cc2ccc(O)c(OCCOCCOCCOCCNC(=O)CCCOc3ccc(-n4c(SCC(=O)Nc5ccc6cn[nH]c6c5)nnc4-c4ccncc4)cc3)c2)C1=O — Kd (T10, SNCA 5' UTR IRE RNA A-bulge hairpin (Homo sapiens); MST): 0.097 µM
C[C@H](Cn1cnc2c(N)ncnc21)OCP(=O)(O)O — Kd (T11, DNA aptamer; interferometric free solution assay; 2 h, 22 °C, NaCl 150 mM, single-site fit): 0.00171 µM

For quick reference, copied from above:
CN1CCN(c2ccc(-c3ccc4[nH]c(-c5ccc(OCCCC(=O)N6CCN(c7nncc8sccc78)CC6)cc5)nc4c3)cc2)CC1 — Kd (T3, pre-miR-21 RNA, U bulge to U-A pair (Homo sapiens); microscale thermophoresis): 0.23 µM
